Measurements from different studies.
Parts stem from different laboratories: compare values within a part only.
UniProt Q9Y6M4, sequence (whole entry, looked up): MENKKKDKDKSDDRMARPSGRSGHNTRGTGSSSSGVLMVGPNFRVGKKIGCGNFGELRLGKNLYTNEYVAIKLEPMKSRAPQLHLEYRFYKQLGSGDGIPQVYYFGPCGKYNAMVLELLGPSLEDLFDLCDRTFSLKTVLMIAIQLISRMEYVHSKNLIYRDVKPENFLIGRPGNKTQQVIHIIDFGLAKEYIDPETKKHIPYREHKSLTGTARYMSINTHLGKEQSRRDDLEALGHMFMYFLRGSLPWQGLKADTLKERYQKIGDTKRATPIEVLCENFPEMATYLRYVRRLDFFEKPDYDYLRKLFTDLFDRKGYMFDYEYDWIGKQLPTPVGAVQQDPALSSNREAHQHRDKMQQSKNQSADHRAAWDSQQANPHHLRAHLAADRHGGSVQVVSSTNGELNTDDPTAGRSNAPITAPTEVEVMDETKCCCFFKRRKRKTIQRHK
UniProt P28482, sequence (whole entry, looked up): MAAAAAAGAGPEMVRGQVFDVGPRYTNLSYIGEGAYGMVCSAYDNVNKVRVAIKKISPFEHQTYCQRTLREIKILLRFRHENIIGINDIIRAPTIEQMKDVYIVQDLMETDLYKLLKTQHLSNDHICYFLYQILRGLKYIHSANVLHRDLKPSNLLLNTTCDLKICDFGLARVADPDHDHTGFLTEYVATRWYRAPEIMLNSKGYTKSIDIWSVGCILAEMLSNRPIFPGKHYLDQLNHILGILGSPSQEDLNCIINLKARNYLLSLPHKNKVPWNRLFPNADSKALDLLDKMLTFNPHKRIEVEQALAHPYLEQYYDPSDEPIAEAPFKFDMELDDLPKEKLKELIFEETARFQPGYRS
UniProt P06213, sequence (whole entry, looked up): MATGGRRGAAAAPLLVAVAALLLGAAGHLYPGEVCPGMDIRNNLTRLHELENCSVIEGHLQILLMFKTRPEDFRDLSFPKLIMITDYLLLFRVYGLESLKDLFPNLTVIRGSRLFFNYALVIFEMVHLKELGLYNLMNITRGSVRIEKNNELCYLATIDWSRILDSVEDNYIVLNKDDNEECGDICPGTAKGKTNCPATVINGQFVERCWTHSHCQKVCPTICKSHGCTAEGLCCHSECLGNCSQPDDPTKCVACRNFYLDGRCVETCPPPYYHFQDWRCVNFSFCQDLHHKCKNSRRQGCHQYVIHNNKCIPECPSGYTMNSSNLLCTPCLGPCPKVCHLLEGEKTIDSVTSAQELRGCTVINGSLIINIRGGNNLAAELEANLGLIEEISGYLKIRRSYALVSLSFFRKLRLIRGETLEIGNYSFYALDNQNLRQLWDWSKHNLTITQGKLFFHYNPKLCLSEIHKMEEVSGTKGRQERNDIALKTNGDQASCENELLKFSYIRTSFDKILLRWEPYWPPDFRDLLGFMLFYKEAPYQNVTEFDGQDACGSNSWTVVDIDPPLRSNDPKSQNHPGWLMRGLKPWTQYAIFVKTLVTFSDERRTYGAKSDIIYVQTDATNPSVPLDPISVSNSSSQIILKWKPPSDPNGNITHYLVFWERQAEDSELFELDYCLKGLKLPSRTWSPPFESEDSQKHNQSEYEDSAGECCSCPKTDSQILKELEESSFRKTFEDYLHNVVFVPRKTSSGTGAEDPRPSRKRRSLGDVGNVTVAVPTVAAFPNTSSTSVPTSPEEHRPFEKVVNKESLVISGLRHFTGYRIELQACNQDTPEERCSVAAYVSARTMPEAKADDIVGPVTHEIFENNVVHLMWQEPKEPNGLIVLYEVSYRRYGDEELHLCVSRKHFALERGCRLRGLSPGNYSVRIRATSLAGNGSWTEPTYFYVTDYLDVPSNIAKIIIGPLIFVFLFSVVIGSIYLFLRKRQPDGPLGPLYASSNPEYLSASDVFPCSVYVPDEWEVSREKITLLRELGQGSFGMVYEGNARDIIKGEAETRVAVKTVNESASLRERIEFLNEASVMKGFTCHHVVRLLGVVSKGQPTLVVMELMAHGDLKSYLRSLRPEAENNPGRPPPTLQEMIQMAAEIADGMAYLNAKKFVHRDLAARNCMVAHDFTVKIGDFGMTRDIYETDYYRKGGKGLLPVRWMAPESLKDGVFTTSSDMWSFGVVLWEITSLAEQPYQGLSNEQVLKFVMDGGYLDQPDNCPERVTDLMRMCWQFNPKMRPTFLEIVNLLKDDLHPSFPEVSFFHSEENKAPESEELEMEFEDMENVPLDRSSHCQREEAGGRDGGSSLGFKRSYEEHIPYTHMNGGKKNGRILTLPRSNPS
UniProt Q13555, sequence (whole entry, looked up): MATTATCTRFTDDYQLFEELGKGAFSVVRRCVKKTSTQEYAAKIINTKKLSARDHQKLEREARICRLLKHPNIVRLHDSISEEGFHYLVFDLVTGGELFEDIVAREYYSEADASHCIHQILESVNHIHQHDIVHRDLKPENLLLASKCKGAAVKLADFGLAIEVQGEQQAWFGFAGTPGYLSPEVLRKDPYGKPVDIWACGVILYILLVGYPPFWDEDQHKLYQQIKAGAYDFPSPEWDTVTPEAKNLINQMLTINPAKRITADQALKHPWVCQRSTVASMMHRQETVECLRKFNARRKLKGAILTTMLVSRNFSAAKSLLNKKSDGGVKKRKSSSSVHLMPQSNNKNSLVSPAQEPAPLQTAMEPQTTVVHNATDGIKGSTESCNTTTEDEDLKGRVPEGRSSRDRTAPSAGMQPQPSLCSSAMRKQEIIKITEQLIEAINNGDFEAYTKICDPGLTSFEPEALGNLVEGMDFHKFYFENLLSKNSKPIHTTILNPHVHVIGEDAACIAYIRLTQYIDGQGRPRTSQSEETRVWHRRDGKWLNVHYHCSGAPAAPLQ
UniProt P51955, sequence (whole entry, looked up): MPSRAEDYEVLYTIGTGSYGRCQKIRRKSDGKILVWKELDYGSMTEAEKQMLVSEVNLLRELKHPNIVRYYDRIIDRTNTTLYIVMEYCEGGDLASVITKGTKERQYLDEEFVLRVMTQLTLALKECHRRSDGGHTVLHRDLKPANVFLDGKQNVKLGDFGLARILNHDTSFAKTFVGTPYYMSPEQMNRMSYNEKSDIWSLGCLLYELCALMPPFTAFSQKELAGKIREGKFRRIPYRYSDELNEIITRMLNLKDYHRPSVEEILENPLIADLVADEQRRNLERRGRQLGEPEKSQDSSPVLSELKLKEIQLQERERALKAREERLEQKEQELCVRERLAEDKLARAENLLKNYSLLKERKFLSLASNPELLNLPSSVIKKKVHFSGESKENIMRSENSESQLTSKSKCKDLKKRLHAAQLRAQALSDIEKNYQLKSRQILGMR
UniProt Q8IU85, sequence (whole entry, looked up): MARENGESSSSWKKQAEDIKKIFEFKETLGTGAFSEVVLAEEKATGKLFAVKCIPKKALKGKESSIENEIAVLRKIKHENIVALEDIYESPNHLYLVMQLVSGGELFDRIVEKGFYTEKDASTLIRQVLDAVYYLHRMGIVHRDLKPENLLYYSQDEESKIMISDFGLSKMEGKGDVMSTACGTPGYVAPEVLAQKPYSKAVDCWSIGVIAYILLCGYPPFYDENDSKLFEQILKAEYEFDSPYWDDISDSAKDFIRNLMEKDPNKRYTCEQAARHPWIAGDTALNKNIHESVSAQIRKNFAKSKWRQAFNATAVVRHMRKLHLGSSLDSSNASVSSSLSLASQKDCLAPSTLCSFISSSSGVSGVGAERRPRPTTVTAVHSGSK
UniProt Q15835, sequence (whole entry, looked up): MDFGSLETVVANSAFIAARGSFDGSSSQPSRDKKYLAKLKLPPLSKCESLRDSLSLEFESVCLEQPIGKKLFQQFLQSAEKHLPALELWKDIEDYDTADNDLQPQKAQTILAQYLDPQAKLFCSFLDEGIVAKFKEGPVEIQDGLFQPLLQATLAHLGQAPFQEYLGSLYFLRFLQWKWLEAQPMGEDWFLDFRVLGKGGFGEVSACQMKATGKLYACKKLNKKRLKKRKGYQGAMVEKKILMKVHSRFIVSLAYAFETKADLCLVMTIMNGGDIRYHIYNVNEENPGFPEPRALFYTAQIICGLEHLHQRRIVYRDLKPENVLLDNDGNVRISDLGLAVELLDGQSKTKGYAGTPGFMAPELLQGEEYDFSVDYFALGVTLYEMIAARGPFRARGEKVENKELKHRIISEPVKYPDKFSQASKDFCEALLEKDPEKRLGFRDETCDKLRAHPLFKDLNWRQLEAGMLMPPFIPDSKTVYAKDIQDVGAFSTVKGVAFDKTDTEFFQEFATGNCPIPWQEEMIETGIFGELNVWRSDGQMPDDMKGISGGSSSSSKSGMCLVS
UniProt Q07002, sequence (whole entry, looked up): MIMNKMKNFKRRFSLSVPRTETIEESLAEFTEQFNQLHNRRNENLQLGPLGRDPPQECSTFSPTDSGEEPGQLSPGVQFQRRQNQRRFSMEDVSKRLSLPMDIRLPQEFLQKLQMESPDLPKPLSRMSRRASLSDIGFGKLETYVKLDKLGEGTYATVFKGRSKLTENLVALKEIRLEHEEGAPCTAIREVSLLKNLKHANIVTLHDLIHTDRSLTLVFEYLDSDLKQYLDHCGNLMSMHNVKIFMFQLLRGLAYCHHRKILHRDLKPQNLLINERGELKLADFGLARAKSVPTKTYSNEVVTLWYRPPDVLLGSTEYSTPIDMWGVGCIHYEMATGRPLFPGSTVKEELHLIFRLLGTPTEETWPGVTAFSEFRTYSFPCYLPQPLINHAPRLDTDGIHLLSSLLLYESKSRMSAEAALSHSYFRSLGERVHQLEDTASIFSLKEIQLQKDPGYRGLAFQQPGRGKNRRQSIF

Sample 1 — observed: enzyme activity; action: inhibitor; concentration: 0.5 µM; relative to: control; endpoint: remaining activity
Target: Serine/threonine-protein kinase VRK1 (VRK1, Homo sapiens, UniProt Q99986)
UniProt Q99986, sequence (whole entry, looked up): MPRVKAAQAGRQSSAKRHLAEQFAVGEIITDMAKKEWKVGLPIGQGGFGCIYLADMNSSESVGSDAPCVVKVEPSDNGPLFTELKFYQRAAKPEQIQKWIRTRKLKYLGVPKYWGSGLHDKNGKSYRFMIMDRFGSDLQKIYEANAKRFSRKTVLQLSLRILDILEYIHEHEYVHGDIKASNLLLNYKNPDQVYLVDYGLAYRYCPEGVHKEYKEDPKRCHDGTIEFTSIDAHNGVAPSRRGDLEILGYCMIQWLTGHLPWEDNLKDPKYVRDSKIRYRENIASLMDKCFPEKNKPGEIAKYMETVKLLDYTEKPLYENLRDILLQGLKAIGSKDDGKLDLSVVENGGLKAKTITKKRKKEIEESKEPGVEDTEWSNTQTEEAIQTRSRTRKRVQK
CC#CC(=O)Nc1cc2c(Nc3ccc(F)c(Cl)c3)ncnc2cn1: 87.8%
Nc1ncnc2c1cnn2-c1ccccc1: 84.4%
CC[n+]1c(/C=C/N(C)c2ccccc2)n(-c2ccccc2)c2ccc(-c3nc4ccccc4s3)cc21: 90.9%
NC(=O)c1ccc(N(C(N)=O)c2c(F)cccc2F)nc1-c1ccc(F)cc1F: 104%
Fc1ccc(-c2nc3n(c2-c2ccncc2)CCS3)cc1: 86.8%
Cc1cc(Nc2nc(-c3ccccc3)nc3ccccc23)n[nH]1: 81%
O=C1NC(=O)C(c2c[nH]c3ccccc23)=C1c1c[nH]c2ccccc12: 109%
CC(=O)c1ccc(N2CCOCC2)cc1O: 98.1%
Cc1ccc(NC2=CC(=O)c3sc(C)nc3C2=O)cc1: 108%
CCCC(=O)Oc1ccc2[nH]c(C(=O)c3cc4ccccc4[nH]3)cc2c1: 85.9%
COc1cc(Nc2c(C#N)cnc3cc(OCCCN4CCN(C)CC4)c(OC)cc23)c(Cl)cc1Cl: 100%
CC(C)(C)n1nc(Cc2cccc3ccccc23)c2c(N)ncnc21: 85.5%
N#CC(=C(N)Sc1ccc(N)cc1)c1ccccc1C(F)(F)F: 100%
Cc1cncc2cccc(S(=O)(=O)N3CCCN(C(=O)CN)C[C@@H]3C)c12: 102%
COc1ccc(S(=O)(=O)N(CCO)c2ccccc2CN(C)CC=Cc2ccc(Cl)cc2)cc1: 96.4%
CCc1[nH]c(-c2ccc(OC)cc2)nc1-c1ccncc1: 104%
O=C1Cc2c([nH]c3ccc([N+](=O)[O-])cc23)-c2ccccc2N1: 90.8%
Oc1ccc(Nc2nc(-c3ccc(Cl)cc3)cs2)cc1: 99.8%
CSc1nc(-c2ccnc(N[C@@H](C)c3ccccc3)c2)c(-c2ccc(F)cc2)[nH]1 (racemic): 94.1%
Nc1nccc(-c2c(-c3ccc(F)cc3)ncn2C2CCNCC2)n1: 83.4%
O=S(=O)(NCCNC/C=C/c1ccc(Br)cc1)c1cccc2cnccc12: 80.1%
Nc1nc(Nc2ccc(S(N)(=O)=O)cc2)nn1C(=O)c1c(F)cccc1F: 90.4%

Sample 2 — organism: Plasmodium berghei; action: inhibitor; cell line: Huh-7; strain: GFP-expressing sporozoites, liver stage; concentration: 10 µM; time: 24 h; relative to: untreated control; endpoint: infection rate
C[C@]12CC[C@@H]3c4ccc(O)cc4CC[C@H]3[C@@H]1CC[C@@H]2O: 108%
O=C1CN(/N=C/c2ccc(-c3ccc([N+](=O)[O-])cc3)o2)C(=O)N1: 102%
COc1ccc(C(=O)c2ccccc2O)c(O)c1: 97.8%
C=CC1=C(C(=O)O)N2C(=O)[C@@H](NC(=O)/C(=N\O)c3csc(N)n3)[C@H]2SC1: 92.8%
Nc1nc(/C(=C/CC(=O)O)C(=O)N[C@@H]2C(=O)N3C(C(=O)O)=CCS[C@H]23)cs1: 107%
O=C1c2c(O)cccc2Cc2cccc(O)c21: 122%
O=C1CN2Cc3c(ccc(Cl)c3Cl)N=C2N1: 99.8%
CC(=O)Oc1ccccc1C(=O)O: 91.3%
CC(C)COCC(CN(Cc1ccccc1)c1ccccc1)N1CCCC1 (stereo not drawn): 76.8%
COc1cc2nc(N(C)CCCNC(=O)C3CCCO3)nc(N)c2cc1OC (racemic): 120%
O=C(O)c1cc(=O)c2c(OCC(O)COc3cccc4oc(C(=O)O)cc(=O)c34)cccc2o1: 81.1%
CCn1nc(C(=O)O)c(=O)c2cc3c(cc21)OCO3: 113%
Cc1nc(C)c(Cl)c(O)c1Cl: 23.2%
CCCCCC(=O)O[C@]1(C(C)=O)CC[C@H]2[C@@H]3CCC4=CC(=O)CC[C@]4(C)[C@H]3CC[C@@]21C: 2.34%
CCCC1O[C@@H]2C[C@H]3[C@@H]4CCC5=CC(=O)C=C[C@]5(C)[C@H]4[C@@H](O)C[C@]3(C)[C@]2(C(=O)CO)O1 (stereo partly drawn): 8.3%
C/C=C/c1ccc(OC)cc1: 103%
C[C@H]1O[C@H](O[C@H]2[C@H](O)[C@@H](O)[C@@H](O[C@H]3[C@H](O)[C@@H](O)C(O)O[C@@H]3CO)O[C@@H]2CO)[C@H](O)[C@@H](O)[C@@H]1N[C@H]1C=C(CO)[C@@H](O)[C@H](O)[C@H]1O (stereo partly drawn): 87.1%

Sample 3 — species: human; matrix: microsomes or S9; concentration: 2 µM; time: 0.5 h; endpoint: remaining compound
c1ccc(-c2cc3cc(-c4ccccc4)[nH]c3cn2)cc1: 49%
Cn1c(-c2c(N)n(C3CCCC3)c3nc4ccccc4nc23)nc2ccccc21: > 99%
Cc1nc(-c2nn(C)c(C)c2Cl)n(-c2ccc(F)cc2F)n1: 53.8%
COc1ccc(Sc2nn(S(C)(=O)=O)c3ccccc23)cc1OC: 11%
CC(C)COc1cc(=O)n2c(c1C(=O)N(C)CCc1ccccn1)CCCCC2: 49.8%
COCCCNC(=O)C1CCC(CN(Cc2c(Cl)cccc2Cl)S(=O)(=O)c2ccc(Br)cc2)CC1 (stereo not drawn): 0%
CCCS(=O)(=O)N1CC(=O)Nc2ccc(Br)cc21: 65.9%
CC1CCCN(c2ncc(CN(Cc3ccccc3)C3CCN(C)CC3)cn2)C1 (stereo not drawn): 2.2%
CCOC1CC(N(C)C(=O)Nc2c(C)noc2C)C12CCCC2 (stereo not drawn): 8.45%
Cc1cc(C)nc(N2CCn3c(nnc3C3CCCN3C)C2)n1 (stereo not drawn): 92%
CC(C)(C)OC(=O)N[C@@H](CC(=O)N1CCCCCN1C(=O)C[C@@H](Cc1cc(F)c(F)cc1F)NC(=O)OC(C)(C)C)Cc1cc(F)c(F)cc1F: < 1%
OCCCN(CCO)c1ccc2cccc(Br)c2n1: 8.73%
Cc1ccc(-c2nn(C(C)(C)C)c(N)c2C#N)cc1: 34.8%
CCOc1ccccc1NC(=O)c1cc2sccc2n1C: 0.137%
O=C(c1ccccc1)c1cc2occ(-c3ccccc3)c2cc1O: 71%
O=c1[nH]c(NN2CCOCC2)nnc1Cc1ccc(Cl)cc1: 34.6%
COc1ccc(OC)c(NC(=O)C2C3CC4OC(=O)C2C4C3)c1 (stereo not drawn): > 99%
COc1ccc(-c2n[nH]cc2CN(Cc2ccncc2)C2CC(C)(C)NC(C)(C)C2)cc1: 74%
O=c1ccc(Br)cn1Cc1ccccc1Oc1ccccc1: 3.96%
Cc1ccc(NC(=O)N2Cc3c(sc4c3CCCC4)-n3cccc3C2c2cccs2)cc1Cl (stereo not drawn): 34.9%
Cc1noc(C)c1CN1CCn2c1nc(-c1ccccc1)cc2=O: 9.96%

Sample 4 — concentration: 1 µM; endpoint: remaining binding
Compound: O=C(Nc1cnc(Oc2ccc(F)cc2)nc1)N1CCc2ncccc2[C@@H]1c1ccc(F)cc1
Mast/stem cell growth factor receptor Kit (KIT, Homo sapiens, UniProt P10721, V559D); cell-free assay, competition with immobilised ligand: 100%
Serine/threonine-protein kinase Nek2 (NEK2, Homo sapiens, UniProt P51955); cell-free assay, competition with immobilised ligand: 92%
Calcium/calmodulin-dependent protein kinase type II subunit gamma (CAMK2G, Homo sapiens, UniProt Q13555); cell-free assay, competition with immobilised ligand: 80%
Cyclin-dependent kinase 18 (CDK18, Homo sapiens, UniProt Q07002); cell-free assay, competition with immobilised ligand: 96%
Insulin receptor (INSR, Homo sapiens, UniProt P06213); cell-free assay, competition with immobilised ligand: 81%
Fibroblast growth factor receptor 3 (FGFR3, Homo sapiens, UniProt P22607); cell-free assay, competition with immobilised ligand: 89%
Phosphatidylinositol 4-phosphate 5-kinase type-1 gamma (PIP5K1C, Homo sapiens, UniProt O60331); cell-free assay, competition with immobilised ligand: 100%
Calcium/calmodulin-dependent protein kinase type 1D (CAMK1D, Homo sapiens, UniProt Q8IU85); cell-free assay, competition with immobilised ligand: 100%
Phosphatidylinositol 5-phosphate 4-kinase type-2 gamma (PIP4K2C, Homo sapiens, UniProt Q8TBX8); cell-free assay, competition with immobilised ligand: 86%
Rhodopsin kinase GRK1 (GRK1, Homo sapiens, UniProt Q15835); cell-free assay, competition with immobilised ligand: 91%
Mitogen-activated protein kinase 1 (MAPK1, Homo sapiens, UniProt P28482); cell-free assay, competition with immobilised ligand: 100%
TGF-beta receptor type-1 (TGFBR1, Homo sapiens, UniProt P36897); cell-free assay, competition with immobilised ligand: 90%
Casein kinase I isoform gamma-3 (CSNK1G3, Homo sapiens, UniProt Q9Y6M4); cell-free assay, competition with immobilised ligand: 87%
Inhibitor of nuclear factor kappa-B kinase subunit beta (IKBKB, Homo sapiens, UniProt O14920); cell-free assay, competition with immobilised ligand: 100%
Serine/threonine-protein kinase MRCK gamma (CDC42BPG, Homo sapiens, UniProt Q6DT37); competition binding: 98%
Platelet-derived growth factor receptor alpha (PDGFRA, Homo sapiens, UniProt P16234); cell-free assay, competition with immobilised ligand: 93%
Phosphatidylinositol 4,5-bisphosphate 3-kinase catalytic subunit alpha isoform (PIK3CA, Homo sapiens, UniProt P42336, M1043I); cell-free assay, competition with immobilised ligand: 100%
Serine/threonine-protein kinase ULK2 (ULK2, Homo sapiens, UniProt Q8IYT8); cell-free assay, competition with immobilised ligand: 93%

For quick reference, copied from above (sample 4):
Serine/threonine-protein kinase Nek2 (NEK2, Homo sapiens, UniProt P51955); cell-free assay, competition with immobilised ligand: 92%
Calcium/calmodulin-dependent protein kinase type II subunit gamma (CAMK2G, Homo sapiens, UniProt Q13555); cell-free assay, competition with immobilised ligand: 80%
Cyclin-dependent kinase 18 (CDK18, Homo sapiens, UniProt Q07002); cell-free assay, competition with immobilised ligand: 96%
Insulin receptor (INSR, Homo sapiens, UniProt P06213); cell-free assay, competition with immobilised ligand: 81%
Fibroblast growth factor receptor 3 (FGFR3, Homo sapiens, UniProt P22607); cell-free assay, competition with immobilised ligand: 89%
Phosphatidylinositol 4-phosphate 5-kinase type-1 gamma (PIP5K1C, Homo sapiens, UniProt O60331); cell-free assay, competition with immobilised ligand: 100%
Calcium/calmodulin-dependent protein kinase type 1D (CAMK1D, Homo sapiens, UniProt Q8IU85); cell-free assay, competition with immobilised ligand: 100%
Phosphatidylinositol 5-phosphate 4-kinase type-2 gamma (PIP4K2C, Homo sapiens, UniProt Q8TBX8); cell-free assay, competition with immobilised ligand: 86%
Rhodopsin kinase GRK1 (GRK1, Homo sapiens, UniProt Q15835); cell-free assay, competition with immobilised ligand: 91%
Mitogen-activated protein kinase 1 (MAPK1, Homo sapiens, UniProt P28482); cell-free assay, competition with immobilised ligand: 100%
TGF-beta receptor type-1 (TGFBR1, Homo sapiens, UniProt P36897); cell-free assay, competition with immobilised ligand: 90%
